{"data": "Published values collected from several papers", "note": "Each numbered part is a random draw from the data of one study; scales do not carry over between parts. Several values in a cell are separate wells, animals, samples, runs or records.", "UniProt P49841, sequence (whole entry, looked up)": "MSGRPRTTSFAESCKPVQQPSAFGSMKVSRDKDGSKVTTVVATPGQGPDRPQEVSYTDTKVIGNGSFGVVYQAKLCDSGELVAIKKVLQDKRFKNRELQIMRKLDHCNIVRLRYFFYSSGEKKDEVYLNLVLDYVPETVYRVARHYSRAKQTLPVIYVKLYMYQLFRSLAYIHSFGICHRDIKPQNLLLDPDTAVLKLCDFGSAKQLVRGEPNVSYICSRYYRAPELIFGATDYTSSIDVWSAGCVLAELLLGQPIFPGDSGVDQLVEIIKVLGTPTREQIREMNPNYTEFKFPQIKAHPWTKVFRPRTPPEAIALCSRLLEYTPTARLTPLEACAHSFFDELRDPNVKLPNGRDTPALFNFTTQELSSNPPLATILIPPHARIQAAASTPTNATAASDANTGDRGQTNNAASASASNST", "UniProt P30291, sequence (whole entry, looked up)": "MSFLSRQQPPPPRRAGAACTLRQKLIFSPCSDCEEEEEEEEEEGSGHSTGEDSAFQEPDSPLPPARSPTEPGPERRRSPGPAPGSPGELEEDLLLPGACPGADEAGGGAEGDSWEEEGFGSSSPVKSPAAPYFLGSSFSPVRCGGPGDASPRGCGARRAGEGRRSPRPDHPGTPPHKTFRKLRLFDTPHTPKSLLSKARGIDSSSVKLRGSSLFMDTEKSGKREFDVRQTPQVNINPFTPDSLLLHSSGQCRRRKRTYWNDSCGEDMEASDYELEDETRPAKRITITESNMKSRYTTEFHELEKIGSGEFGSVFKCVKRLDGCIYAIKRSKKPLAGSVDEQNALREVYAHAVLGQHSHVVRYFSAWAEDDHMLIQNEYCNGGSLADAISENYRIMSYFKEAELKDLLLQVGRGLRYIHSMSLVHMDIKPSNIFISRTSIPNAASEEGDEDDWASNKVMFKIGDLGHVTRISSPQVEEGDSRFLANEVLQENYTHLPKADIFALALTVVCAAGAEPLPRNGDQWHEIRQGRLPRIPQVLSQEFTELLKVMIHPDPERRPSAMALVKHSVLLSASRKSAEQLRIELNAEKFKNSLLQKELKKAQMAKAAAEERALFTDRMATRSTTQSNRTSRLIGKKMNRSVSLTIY", "UniProt Q6ZN16, sequence (whole entry, looked up)": "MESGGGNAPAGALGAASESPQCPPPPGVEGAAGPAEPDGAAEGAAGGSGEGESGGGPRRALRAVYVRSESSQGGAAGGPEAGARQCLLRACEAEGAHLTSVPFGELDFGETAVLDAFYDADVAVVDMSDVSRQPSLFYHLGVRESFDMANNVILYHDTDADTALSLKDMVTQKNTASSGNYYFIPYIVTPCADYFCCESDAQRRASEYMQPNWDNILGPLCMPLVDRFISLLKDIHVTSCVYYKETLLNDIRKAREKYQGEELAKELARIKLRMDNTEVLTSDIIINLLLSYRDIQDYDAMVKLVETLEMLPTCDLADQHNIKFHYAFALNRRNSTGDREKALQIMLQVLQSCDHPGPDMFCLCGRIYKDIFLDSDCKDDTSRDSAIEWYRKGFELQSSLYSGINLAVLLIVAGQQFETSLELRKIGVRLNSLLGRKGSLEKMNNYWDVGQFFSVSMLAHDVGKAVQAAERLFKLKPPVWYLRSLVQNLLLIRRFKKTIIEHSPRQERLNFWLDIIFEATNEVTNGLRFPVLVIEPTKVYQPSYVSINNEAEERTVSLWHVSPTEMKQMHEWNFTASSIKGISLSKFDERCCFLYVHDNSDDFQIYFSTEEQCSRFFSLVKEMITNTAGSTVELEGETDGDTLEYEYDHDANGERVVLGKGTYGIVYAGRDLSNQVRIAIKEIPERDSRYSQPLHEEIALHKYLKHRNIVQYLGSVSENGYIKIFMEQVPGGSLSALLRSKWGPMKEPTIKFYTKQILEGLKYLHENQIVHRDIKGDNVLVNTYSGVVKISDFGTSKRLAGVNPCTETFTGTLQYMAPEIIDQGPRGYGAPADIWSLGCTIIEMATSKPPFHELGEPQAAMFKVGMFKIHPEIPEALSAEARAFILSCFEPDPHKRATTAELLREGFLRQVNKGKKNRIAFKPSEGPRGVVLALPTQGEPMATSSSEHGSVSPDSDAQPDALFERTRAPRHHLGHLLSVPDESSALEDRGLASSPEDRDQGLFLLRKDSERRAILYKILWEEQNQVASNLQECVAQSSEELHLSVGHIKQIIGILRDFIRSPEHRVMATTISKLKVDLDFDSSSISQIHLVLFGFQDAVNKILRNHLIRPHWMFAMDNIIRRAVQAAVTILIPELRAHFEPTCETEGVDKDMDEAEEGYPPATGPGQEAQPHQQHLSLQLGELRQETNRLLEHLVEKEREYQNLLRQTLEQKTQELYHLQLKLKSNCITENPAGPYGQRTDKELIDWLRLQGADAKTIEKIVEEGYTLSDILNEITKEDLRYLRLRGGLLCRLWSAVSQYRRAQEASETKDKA", "UniProt P42681, sequence (whole entry, looked up)": "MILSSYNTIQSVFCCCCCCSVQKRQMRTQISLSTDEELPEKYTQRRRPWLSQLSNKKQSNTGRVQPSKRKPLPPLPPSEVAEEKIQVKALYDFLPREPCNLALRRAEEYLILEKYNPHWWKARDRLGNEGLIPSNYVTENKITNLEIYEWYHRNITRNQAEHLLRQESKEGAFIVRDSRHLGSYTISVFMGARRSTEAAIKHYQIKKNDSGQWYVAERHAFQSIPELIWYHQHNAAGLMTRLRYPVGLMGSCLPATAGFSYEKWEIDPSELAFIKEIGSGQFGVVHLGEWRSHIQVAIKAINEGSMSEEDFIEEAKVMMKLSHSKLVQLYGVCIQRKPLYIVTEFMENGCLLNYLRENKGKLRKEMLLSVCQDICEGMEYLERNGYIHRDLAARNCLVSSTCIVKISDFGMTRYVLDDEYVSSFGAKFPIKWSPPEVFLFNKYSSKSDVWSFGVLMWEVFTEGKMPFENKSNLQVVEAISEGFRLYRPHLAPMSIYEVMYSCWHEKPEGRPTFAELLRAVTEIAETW", "UniProt Q9UHD2, sequence (whole entry, looked up)": "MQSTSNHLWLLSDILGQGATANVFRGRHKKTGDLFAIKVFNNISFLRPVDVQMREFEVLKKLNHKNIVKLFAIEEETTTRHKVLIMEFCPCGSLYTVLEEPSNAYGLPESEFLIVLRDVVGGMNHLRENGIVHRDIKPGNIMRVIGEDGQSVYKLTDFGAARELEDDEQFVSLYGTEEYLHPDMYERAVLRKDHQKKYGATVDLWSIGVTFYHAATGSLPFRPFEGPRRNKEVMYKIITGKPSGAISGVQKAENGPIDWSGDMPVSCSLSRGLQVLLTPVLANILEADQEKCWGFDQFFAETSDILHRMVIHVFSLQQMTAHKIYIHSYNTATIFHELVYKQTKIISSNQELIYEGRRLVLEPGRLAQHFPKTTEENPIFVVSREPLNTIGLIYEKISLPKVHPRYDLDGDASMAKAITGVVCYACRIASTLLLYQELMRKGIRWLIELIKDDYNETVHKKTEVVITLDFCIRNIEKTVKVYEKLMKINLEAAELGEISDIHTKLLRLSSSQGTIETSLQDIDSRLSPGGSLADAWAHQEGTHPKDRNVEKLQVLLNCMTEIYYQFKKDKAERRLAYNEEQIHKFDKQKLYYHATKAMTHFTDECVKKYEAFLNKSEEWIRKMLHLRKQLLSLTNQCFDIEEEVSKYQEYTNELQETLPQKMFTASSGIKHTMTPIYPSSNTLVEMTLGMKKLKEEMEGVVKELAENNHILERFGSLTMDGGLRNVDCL", "UniProt P42685, sequence (whole entry, looked up)": "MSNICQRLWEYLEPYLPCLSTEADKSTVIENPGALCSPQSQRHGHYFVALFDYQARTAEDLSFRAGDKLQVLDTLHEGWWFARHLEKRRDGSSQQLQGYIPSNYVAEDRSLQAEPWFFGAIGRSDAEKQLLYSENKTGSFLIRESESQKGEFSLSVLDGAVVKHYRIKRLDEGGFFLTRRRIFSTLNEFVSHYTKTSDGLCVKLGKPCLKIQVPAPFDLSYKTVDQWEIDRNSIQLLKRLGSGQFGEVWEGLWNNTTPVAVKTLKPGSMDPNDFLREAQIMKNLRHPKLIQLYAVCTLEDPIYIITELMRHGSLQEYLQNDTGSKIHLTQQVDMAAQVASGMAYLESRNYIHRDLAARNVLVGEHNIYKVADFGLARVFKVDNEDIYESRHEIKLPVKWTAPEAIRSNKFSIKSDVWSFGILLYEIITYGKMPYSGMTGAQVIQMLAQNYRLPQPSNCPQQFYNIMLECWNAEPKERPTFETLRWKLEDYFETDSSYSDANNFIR", "UniProt P19784, sequence (whole entry, looked up)": "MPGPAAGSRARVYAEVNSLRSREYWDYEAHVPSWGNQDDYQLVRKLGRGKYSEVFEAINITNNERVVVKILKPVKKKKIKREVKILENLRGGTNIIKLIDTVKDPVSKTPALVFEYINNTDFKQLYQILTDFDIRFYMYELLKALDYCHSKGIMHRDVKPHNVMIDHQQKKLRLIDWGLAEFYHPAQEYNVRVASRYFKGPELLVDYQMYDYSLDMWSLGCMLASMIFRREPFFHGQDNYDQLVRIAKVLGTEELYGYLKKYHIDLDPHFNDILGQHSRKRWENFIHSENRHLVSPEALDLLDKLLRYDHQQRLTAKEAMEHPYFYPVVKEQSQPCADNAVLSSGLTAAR"}
{"data": "Block 1", "cell line": "mouse MPNST tumor cells", "method": "high-content immunofluorescence imaging", "item": "nuclear SOX9", "concentration": "10 µM", "time": "12 h", "notes": "mean of 2 replicates", "reference": "DMSO control", "direction": "higher = more nuclear SOX9"}
{"Structure (SMILES)": "CCc1cccc2c3c([nH]c12)C(CC)(CC(=O)O)OCC3 (stereo not drawn)", "nuclear SOX9 intensity": "105 % of DMSO"}
{"Structure (SMILES)": "COC(=O)C1=C(C)NC(C)=C(C(=O)OC2CCCN(Cc3ccccc3)C2)C1c1cccc([N+](=O)[O-])c1 (stereo not drawn)", "nuclear SOX9 intensity": "139 % of DMSO"}
{"Structure (SMILES)": "CC(C[N+](C)(C)C)OC(N)=O (stereo not drawn)", "nuclear SOX9 intensity": "89.8 % of DMSO"}
{"Structure (SMILES)": "COc1ccc2c(-c3ccc(O)c(C)c3)ccnc2c1", "nuclear SOX9 intensity": "126 % of DMSO"}
{"Structure (SMILES)": "CC[C@H](C)C(=O)O[C@H]1CCC=C2C=C[C@H](C)[C@H](CC[C@@H]3C[C@@H](O)CC(=O)O3)[C@H]21", "nuclear SOX9 intensity": "120 % of DMSO and 121 % of DMSO"}
{"Structure (SMILES)": "C[C@](Cc1c[nH]c2ccccc12)(NC(=O)OC1[C@H]2C[C@@H]3C[C@@H](C[C@H]1C3)C2)C(=O)NC[C@H](NC(=O)CCC(=O)O)c1ccccc1 (stereo partly drawn)", "nuclear SOX9 intensity": "94.8 % of DMSO"}
{"Structure (SMILES)": "O=C(NNc1ccccc1)c1ccncc1", "nuclear SOX9 intensity": "104 % of DMSO"}
{"Structure (SMILES)": "Cc1cccc(-c2[nH]ncc2-c2ccc(F)c(-c3cnn(CCO)c3)c2)n1", "nuclear SOX9 intensity": "135 % of DMSO"}
{"Structure (SMILES)": "C=CCSCC1Nc2cc(Cl)c(S(N)(=O)=O)cc2S(=O)(=O)N1 (stereo not drawn)", "nuclear SOX9 intensity": "101 % of DMSO"}
{"Structure (SMILES)": "COc1ccc(Nc2nccc(NCCO)n2)cc1", "nuclear SOX9 intensity": "87.8 % of DMSO"}
{"Structure (SMILES)": "O=C(CCCCCCC(=O)Nc1ccccc1)NO", "nuclear SOX9 intensity": "125 % of DMSO and 154 % of DMSO and 135 % of DMSO"}
{"Structure (SMILES)": "N=C(N)NCCC[C@@H](NC(=O)C(c1ccccc1)c1ccccc1)C(=O)NCc1ccc(CNC(N)=O)cc1", "nuclear SOX9 intensity": "129 % of DMSO"}
{"data": "Block 2", "Compound": "CNC(=O)Nc1ccc2c(c1)[C@@]1(CC2)OC(=O)N(CC(=O)N(Cc2ccc(F)cc2)[C@@H](C)C(F)(F)F)C1=O", "method": "competition with immobilised ligand", "concentration": "1 µM"}
{"target": "MYLK4 (Homo sapiens, UniProt Q86YV6)", "test": "cell-free assay", "remaining binding [%]": 100}
{"target": "Aurora kinase C (AURKC, Homo sapiens, UniProt Q9UQB9)", "test": "cell-free assay", "remaining binding [%]": 100}
{"target": "GSK3B (Homo sapiens, UniProt P49841)", "test": "cell-free assay", "remaining binding [%]": 95}
{"target": "PRKD3 (Homo sapiens, UniProt O94806)", "test": "cell-free assay", "remaining binding [%]": 100}
{"target": "WNK3 (Homo sapiens, UniProt Q9BYP7)", "test": "cell-free assay", "remaining binding [%]": 63}
{"target": "DYRK1B (Homo sapiens, UniProt Q9Y463)", "test": "cell-free assay", "remaining binding [%]": 100}
{"target": "STK10 (Homo sapiens, UniProt O94804)", "test": "cell-free assay", "remaining binding [%]": 92}
{"target": "MARK4 (Homo sapiens, UniProt Q96L34)", "test": "cell-free assay", "remaining binding [%]": 92}
{"target": "HASPIN (Homo sapiens, UniProt Q8TF76)", "test": "cell-free assay", "remaining binding [%]": 83}
{"target": "SBK1 (Homo sapiens, UniProt Q52WX2)", "test": "cell-free assay", "remaining binding [%]": 75}
{"target": "MAP2K4 (Homo sapiens, UniProt P45985)", "test": "cell-free assay", "remaining binding [%]": 95}
{"target": "TTK (Homo sapiens, UniProt P33981)", "test": "cell-free assay", "remaining binding [%]": 100}
{"target": "MET (Homo sapiens, UniProt P08581, M1250T)", "test": "cell-free assay", "remaining binding [%]": 100}
{"target": "NEK5 (Homo sapiens, UniProt Q6P3R8)", "test": "cell-free assay", "remaining binding [%]": 95}
{"target": "Receptor-type tyrosine-protein kinase FLT3, autoinhibited (FLT3, Homo sapiens, UniProt P36888)", "test": "cell-free assay", "remaining binding [%]": 92}
{"target": "CSNK2A2 (Homo sapiens, UniProt P19784)", "test": "cell-free assay", "remaining binding [%]": 90}
{"target": "STK36 (Homo sapiens, UniProt Q9NRP7)", "test": "cell-free assay", "remaining binding [%]": 100}
{"target": "EGFR (Homo sapiens, UniProt P00533, L858R)", "test": "cell-free assay", "remaining binding [%]": 100}
{"target": "WEE1 (Homo sapiens, UniProt P30291)", "test": "cell-free assay", "remaining binding [%]": 100}
{"target": "MAP3K15 (Homo sapiens, UniProt Q6ZN16)", "test": "cell-free assay", "remaining binding [%]": 90}
{"target": "DMPK (Homo sapiens, UniProt Q09013)", "test": "cell-free assay", "remaining binding [%]": 92}
{"target": "TXK (Homo sapiens, UniProt P42681)", "test": "binding", "remaining binding [%]": 100}
{"data": "Block 3", "target": "Calcium/calmodulin-dependent protein kinase type II subunit alpha (CAMK2A, Homo sapiens, UniProt Q9UQM7)", "read-out": "enzyme activity", "mode": "inhibitor", "concentration": "10 µM", "UniProt Q9UQM7, sequence (whole entry, looked up)": "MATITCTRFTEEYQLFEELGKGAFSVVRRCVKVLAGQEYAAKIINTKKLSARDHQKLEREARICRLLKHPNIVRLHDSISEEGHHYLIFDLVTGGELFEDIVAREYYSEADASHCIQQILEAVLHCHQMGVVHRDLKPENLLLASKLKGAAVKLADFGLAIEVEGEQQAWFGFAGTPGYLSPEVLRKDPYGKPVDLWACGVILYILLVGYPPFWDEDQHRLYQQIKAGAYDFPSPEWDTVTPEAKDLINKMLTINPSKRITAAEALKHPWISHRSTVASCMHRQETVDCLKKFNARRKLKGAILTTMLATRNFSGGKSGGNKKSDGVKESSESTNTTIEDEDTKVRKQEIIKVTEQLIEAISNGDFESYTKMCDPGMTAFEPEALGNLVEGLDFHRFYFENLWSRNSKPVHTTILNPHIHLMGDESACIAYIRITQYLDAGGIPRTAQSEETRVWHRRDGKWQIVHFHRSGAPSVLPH"}
{"Structure (SMILES)": "CN1CCN(CC(=O)N2c3ccccc3C(=O)Nc3cccnc32)CC1", "inhibition [%]": -11}
{"Structure (SMILES)": "CSCCNc1nc(SCCC(F)(F)F)nc2c1ncn2[C@@H]1O[C@H](COP(=O)(O)OP(=O)(O)C(Cl)(Cl)P(=O)(O)O)[C@@H](O)[C@H]1O", "inhibition [%]": -6}
{"Structure (SMILES)": "COc1cc(C(=O)O)cc(OC)c1O", "inhibition [%]": -57}
{"Structure (SMILES)": "COc1ccc(-c2oc3c(CC=C(C)C)c(O[C@@H]4O[C@H](CO)[C@@H](O)[C@H](O)[C@H]4O)cc(O)c3c(=O)c2O[C@@H]2O[C@@H](C)[C@H](O)[C@@H](O)[C@H]2O[C@@H]2O[C@@H](C)[C@H](O)[C@@H](O)[C@H]2O)cc1", "inhibition [%]": -26}
{"Structure (SMILES)": "CCC(=O)O[C@@H](O[P@](=O)(CCCCc1ccccc1)CC(=O)N1C[C@H](C2CCCCC2)C[C@H]1C(=O)O)C(C)C", "inhibition [%]": -17}
{"Structure (SMILES)": "CN1[C@@H]2CC[C@H]1CC(OC(c1ccccc1)c1ccccc1)C2 (stereo partly drawn)", "inhibition [%]": 5}
{"Structure (SMILES)": "CCc1cnn2c(NCc3ccc[n+]([O-])c3)cc(N3CCCC[C@H]3CCO)nc12", "inhibition [%]": 2}
{"Structure (SMILES)": "COc1c(O[C@@H]2O[C@H](CO)[C@@H](O)[C@H](O)[C@H]2O)cc2c(c1O)C(=O)c1c(cc(C)c(O)c1OC)C2=O", "inhibition [%]": -1}
{"Structure (SMILES)": "CC1(C)C[C@@H]1C(=O)N/C(=C\\CCCCSC[C@H](N)C(=O)O)C(=O)O", "inhibition [%]": -5}
{"data": "Block 4", "SMILES": "COc1cc2ncnc(Nc3ccc(OCc4ccccc4)cc3)c2cc1OC", "read-out": "enzyme activity", "mode": "inhibitor", "concentration": "0.5 µM", "reference": "control"}
{"target": "TAOK2 (Homo sapiens, UniProt Q9UL54)", "remaining activity [%]": 106}
{"target": "FGFR1 (Homo sapiens, UniProt P11362)", "remaining activity [%]": 91.3}
{"target": "CSNK1G3 (Homo sapiens, UniProt Q9Y6M4)", "remaining activity [%]": 92.9}
{"target": "ULK2 (Homo sapiens, UniProt Q8IYT8)", "remaining activity [%]": 97}
{"target": "WEE1 (Homo sapiens, UniProt P30291)", "remaining activity [%]": 94.7}
{"target": "TBK1 (Homo sapiens, UniProt Q9UHD2)", "remaining activity [%]": 101}
{"target": "FRK (Homo sapiens, UniProt P42685)", "remaining activity [%]": 104}
{"target": "NEK1 (Homo sapiens, UniProt Q96PY6)", "remaining activity [%]": 104}
{"target": "GSK3B (Homo sapiens, UniProt P49841)", "remaining activity [%]": 119}
{"target": "MAP3K14 (Homo sapiens, UniProt Q99558)", "remaining activity [%]": 84.4}
{"target": "EPHA3 (Homo sapiens, UniProt P29320)", "remaining activity [%]": 98.1}
{"target": "MAP3K5 (Homo sapiens, UniProt Q99683)", "remaining activity [%]": 97.8}
{"target": "JAK3 (Homo sapiens, UniProt P52333)", "remaining activity [%]": 108}
{"target": "MAPKAPK2 (Homo sapiens, UniProt P49137)", "remaining activity [%]": 106}
{"note": "Repeated from above (block 3):"}
{"Structure (SMILES)": "CN1CCN(CC(=O)N2c3ccccc3C(=O)Nc3cccnc32)CC1", "inhibition [%]": -11}
{"Structure (SMILES)": "CSCCNc1nc(SCCC(F)(F)F)nc2c1ncn2[C@@H]1O[C@H](COP(=O)(O)OP(=O)(O)C(Cl)(Cl)P(=O)(O)O)[C@@H](O)[C@H]1O", "inhibition [%]": -6}
{"Structure (SMILES)": "CCc1cnn2c(NCc3ccc[n+]([O-])c3)cc(N3CCCC[C@H]3CCO)nc12", "inhibition [%]": 2}
{"Structure (SMILES)": "COc1cc(C(=O)O)cc(OC)c1O", "inhibition [%]": -57}
{"Structure (SMILES)": "CC1(C)C[C@@H]1C(=O)N/C(=C\\CCCCSC[C@H](N)C(=O)O)C(=O)O", "inhibition [%]": -5}
